Measurements collected from several papers.
Compare with care: the assays were run in different laboratories. ± gives the spread as reported.

N=C(N)NCCC[C@@H]1NC(=O)[C@H](CCCCNC(=O)CC[C@H](NC(=O)[C@H]2O[C@@H](CNC(=O)c3ccc(F)cc3)[C@H](O)[C@@H](O)[C@H]2O)C(=O)NCCCC[C@@H]2NC(=O)[C@@H](Cc3ccc(O)cc3)NC(=O)[C@H](CC(=O)O)NC(=O)CNC(=O)[C@H](CCCNC(=N)N)NC2=O)NC(=O)[C@@H](Cc2ccc(O)cc2)NC(=O)[C@H](CC(=O)O)NC(=O)CNC1=O [fluorine-18 labelled] — tissue uptake (small-animal PET; female athymic nude mice, U-87 MG xenograft, liver; intravenous, 3.7 MBq, 120 min): 0.28 ± 0.1 %ID/g
CCCC[C@H](NC(=O)CNC(=O)CNC(=O)CN1CCN(CC(=O)O)CCN(CC(=O)O)CCN(CC(=O)O)CC1)C(=O)N[C@H]1CC(=O)NCCCC[C@@H](C(N)=O)NC(=O)[C@H](Cc2c[nH]c3ccccc23)NC(=O)[C@H](CCCNC(=N)N)NC(=O)[C@@H](Cc2ccccc2)NC(=O)[C@H](Cc2c[nH]cn2)NC1=O [copper-64 labelled] — tissue uptake (female C57 mice, B16/F1 melanoma, liver; intravenous, 0.037 MBq, 2 h): 10.3 ± 1.18 %ID/g
O=C([O-])CN1CCN(CC(=O)[O-])CCN(CC(=O)[O-])CCN(CC(=O)[O-])CC1.[64Cu+2] — tissue uptake (healthy athymic nude mice, small intestine; intravenous, 24 h): 0.44 %ID/g
N=C(N)NCCC[C@H](NC(=O)[C@@H]1CSSC[C@H](NC(=O)[C@H](Cc2ccc3ccccc3c2)NC(=O)[C@H](CCCNC(=N)N)NC(=O)[C@H](CCCNC(=N)N)NC(=O)CN2CCN(CC(=O)O)CCN(CC(=O)O)CCN(CC(=O)O)CC2)C(=O)N[C@@H](Cc2ccc(O)cc2)C(=O)N[C@@H](CCCNC(N)=O)C(=O)N[C@@H](CCCCN)C(=O)N[C@H](CCCCN)C(=O)N2CCC[C@H]2C(=O)N[C@@H](Cc2ccc(O)cc2)C(=O)N[C@@H](CCCNC(=N)N)C(=O)N[C@@H](CCCNC(N)=O)C(=O)N1)C(N)=O [copper-64 labelled] — tissue uptake (PET; tumour-bearing mice, kidney; 100 µCi, 24 h): 22.4 ± 4.7 %ID/g
CCCC[C@H](NC(=O)CNC(=O)CNC(=O)CN1CCN(CC(=O)O)CCN(CC(=O)O)CCN(CC(=O)O)CC1)C(=O)N[C@H]1CC(=O)NCCCC[C@@H](C(N)=O)NC(=O)[C@H](Cc2c[nH]c3ccccc23)NC(=O)[C@H](CCCNC(=N)N)NC(=O)[C@@H](Cc2ccccc2)NC(=O)[C@H](Cc2c[nH]cn2)NC1=O [gallium-67 labelled] — tissue uptake (female C57 mice, B16/F1 melanoma, skin; intravenous, 0.037 MBq, 0.5 h): 5.31 ± 2.35 %ID/g
CC(F)C(=O)NC[C@@H]1O[C@H](C(=O)NCCCC[C@@H]2NC(=O)[C@@H](Cc3ccccc3)NC(=O)[C@H](CC(=O)O)NC(=O)CNC(=O)[C@H](CCCNC(=N)N)NC2=O)[C@H](O)[C@H](O)[C@H]1O (some centres unmarked) [fluorine-18 labelled] — tissue uptake (small-animal PET; female athymic nude mice, U-87 MG xenograft, liver; intravenous, 3.7 MBq, 60 min): 0.2 ± 0.02 %ID/g
CCCC[C@H](NC(=O)CN1CCC(NC(=O)CN2CCN(CC(=O)O)CCN(CC(=O)O)CCN(CC(=O)O)CC2)CC1)C(=O)N[C@H]1CC(=O)NCCCC[C@@H](C(N)=O)NC(=O)[C@H](Cc2c[nH]c3ccccc23)NC(=O)[C@H](CCCNC(=N)N)NC(=O)[C@@H](Cc2ccccc2)NC(=O)[C@H](Cc2c[nH]cn2)NC1=O [gallium-68 labelled] — tissue uptake (male C57BL/6J mice, B16-F10 tumours, bone; intravenous, 1 h, blocking study, with: 100 µg non-radioactive Ga-peptide): 1.1 ± 0.5 %ID/g
CCCC[C@@H]1NC(=O)[C@@H](NC(=O)[C@H](CCC(=O)O)NC(=O)CNC(=O)CN2CCN(CC(=O)O)CCN(CC(=O)O)CCN(CC(=O)O)CC2)CCCCNC(=O)C[C@@H](C(N)=O)NC(=O)[C@H](C(C)C)NC(=O)[C@@H]2CCCN2C(=O)[C@H](CCCNC(=N)N)NC(=O)CNC(=O)[C@H](Cc2c[nH]c3ccccc23)NC(=O)[C@H](CCCNC(=N)N)NC(=O)[C@@H](Cc2ccccc2)NC(=O)[C@H](Cc2c[nH]cn2)NC(=O)[C@H](CCC(=O)O)NC1=O [gallium-67 labelled] — tissue uptake (C57 mice, B16/F1 flank melanoma, spleen; intravenous, 2 h, with: blocking peptide 10 µg): 0.07 ± 0.03 %ID/g
CC(F)C(=O)NC[C@@H]1O[C@H](C(=O)N[C@@H](CCC(=O)NCCCC[C@@H]2NC(=O)[C@@H](Cc3ccc(O)cc3)NC(=O)[C@H](CC(=O)O)NC(=O)CNC(=O)[C@H](CCCNC(=N)N)NC2=O)C(=O)NCCCC[C@@H]2NC(=O)[C@@H](Cc3ccc(O)cc3)NC(=O)[C@H](CC(=O)O)NC(=O)CNC(=O)[C@H](CCCNC(=N)N)NC2=O)[C@H](O)[C@H](O)[C@H]1O (some centres unmarked) [fluorine-18 labelled] — tissue uptake (small-animal PET; female athymic nude mice, U-87 MG xenograft, liver; intravenous, 3.7 MBq, 120 min): 0.25 ± 0.05 %ID/g
O=C(NCC1OC2CCC=CCCC2O1)c1ccc(COCCOCCOCC[18F])cc1 (centres unmarked) — tissue uptake (female BALB/c nude mice, brain; intravenous, 60 min): 2.6 ± 0.5 %ID/g
O=C([O-])c1cccc(CN(CCN(Cc2cn(Cc3ccccc3)nn2)Cc2cccc(C(=O)[O-])n2)Cc2cn(Cc3ccccc3)nn2)n1.[64Cu+2] — tissue uptake (healthy athymic nude mice, kidney; intravenous, 15 min): 8.9 %ID/g
NC12CNCCNCC(NCc3ccc(CNC(=O)CCCC(=O)NCc4ccc(-c5nncnn5)cc4)cc3)(CNCCNC1)CNCCNC2.[64Cu+2] — tissue uptake (athymic nude mice, SW1222 xenograft, large intestine with contents; 1 h, pretargeting with huA33-TCO, 24 h interval): 0.21 ± 0.09 %ID/g
O=C([O-])CN1CCN(CC(=O)[O-])CCN(CC(=O)NC[C@H]2CC[C@H](C(=O)N[C@H](Cc3cnc4ccccc4c3)C(=O)NCCCC[C@H](NC(=O)N[C@@H](CCC(=O)O)C(=O)O)C(=O)O)CC2)CCN(CC(=O)[O-])CC1.[64Cu+2] — tissue uptake (ex vivo gamma counting; 22Rv1 tumour-bearing mice, liver; intravenous, 0.74 MBq, 1 h): 19.2 ± 2.95 %ID/g
CC(F)C(=O)NCCOCCOCCOCC(=O)N[C@@H](CCC(=O)NCCCC[C@@H]1NC(=O)[C@@H](Cc2ccc(O)cc2)NC(=O)[C@H](CC(=O)O)NC(=O)CNC(=O)[C@H](CCCNC(=N)N)NC1=O)C(=O)NCCCC[C@@H]1NC(=O)[C@@H](Cc2ccc(O)cc2)NC(=O)[C@H](CC(=O)O)NC(=O)CNC(=O)[C@H](CCCNC(=N)N)NC1=O (some centres unmarked) [fluorine-18 labelled] — tissue uptake (small-animal PET; female athymic nude mice, U-87 MG xenograft, muscle; intravenous, 3.7 MBq, 60 min): 0.31 ± 0.05 %ID/g
CN1C(=O)[C@@H](Cc2ccc(O)c(I)c2)NC(=O)CNC(=O)[C@H](Cc2ccc3ccccc3c2)NC(=O)[C@H](CCCNC(=N)N)NC(=O)[C@H]1CCCNC(=O)c1ccc(CNC(=O)CN2CCN(CC(=O)O)CCN(CC(=O)O)CCN(CC(=O)O)CC2)cc1 [lutetium-177 labelled] — tissue uptake (measured: 177Lu radioactivity; female CB-17 SCID mice, Daudi xenograft, blood; intravenous, 0.16 nmol per mouse, 48 h): 0.02 ± 0.001 %ID/g
CCCC[C@H](NC(=O)CNC(=O)CNC(=O)CN1CCN(CC(=O)O)CCN(CC(=O)O)CC1)C(=O)N[C@H]1CC(=O)NCCCC[C@@H](C(N)=O)NC(=O)[C@H](Cc2c[nH]c3ccccc23)NC(=O)[C@H](CCCNC(=N)N)NC(=O)[C@@H](Cc2ccccc2)NC(=O)[C@H](Cc2c[nH]cn2)NC1=O [gallium-67 labelled] — tissue uptake (female C57 mice, B16/F1 melanoma, muscle; intravenous, 0.037 MBq, 4 h): 0.33 ± 0.11 %ID/g
N=C(N)NCCC[C@@H]1NC(=O)[C@H](CCCCNC(=O)CON=C[C@H](F)[C@@H](O)[C@H](O)[C@H](O)CO)NC(=O)[C@@H](Cc2ccc(O)cc2)NC(=O)[C@H](CC(=O)O)NC(=O)CNC1=O [fluorine-18 labelled] — tissue uptake (nude mice U-87 MG tumour, blood; intravenous, 0.5 h): 2.04 ± 2.28 %ID/g
CCCC[C@H](NC(=O)CNC(=O)CNC(=O)CN1CCN(CC(=O)O)CCN(CC(=O)O)CCN(CC(=O)O)CC1)C(=O)N[C@H]1CC(=O)NCCCC[C@@H](C(N)=O)NC(=O)[C@H](Cc2c[nH]c3ccccc23)NC(=O)[C@H](CCCNC(=N)N)NC(=O)[C@@H](Cc2ccccc2)NC(=O)[C@H](Cc2c[nH]cn2)NC1=O [lead-203 labelled] — tissue uptake (C57 mice with metastatic melanoma, lung; intravenous, 0.056 MBq, 24 h): 3.9 ± 0.18 %ID/g
CC(F)C(=O)NC[C@@H]1O[C@H](C(=O)NCCCC[C@@H]2NC(=O)[C@@H](Cc3ccc(O)cc3)NC(=O)[C@H](CC(=O)O)NC(=O)CNC(=O)[C@H](CCCNC(=N)N)NC2=O)[C@H](O)[C@H](O)[C@H]1O (some centres unmarked) [fluorine-18 labelled] — tissue uptake (small-animal PET; female athymic nude mice, U-87 MG xenograft, liver; intravenous, 3.7 MBq, 120 min): 0.12 ± 0.01 %ID/g
N=C(N)NCCC[C@H](NC(=O)[C@@H]1CSSC[C@H](NC(=O)[C@H](Cc2ccc3ccccc3c2)NC(=O)[C@H](CCCNC(=N)N)NC(=O)[C@H](CCCNC(=N)N)NC(=S)Nc2ccc(C[C@H]3CN(CC(=O)O)CCN(CC(=O)O)CCN3CC(=O)O)cc2)C(=O)N[C@@H](Cc2ccc(O)cc2)C(=O)N[C@@H](CCCNC(N)=O)C(=O)N[C@@H](CCCCN)C(=O)N[C@H](CCCCN)C(=O)N2CCC[C@H]2C(=O)N[C@@H](Cc2ccc(O)cc2)C(=O)N[C@@H](CCCNC(=N)N)C(=O)N[C@@H](CCCNC(N)=O)C(=O)N1)C(N)=O [copper-64 labelled] — tissue uptake (female athymic nude mice, blood; intravenous, 50 µCi, 4 h): 0.12 ± 0.01 %ID/g

Excerpt of the above:
N=C(N)NCCC[C@@H]1NC(=O)[C@H](CCCCNC(=O)CON=C[C@H](F)[C@@H](O)[C@H](O)[C@H](O)CO)NC(=O)[C@@H](Cc2ccc(O)cc2)NC(=O)[C@H](CC(=O)O)NC(=O)CNC1=O [fluorine-18 labelled] — tissue uptake (nude mice U-87 MG tumour, blood; intravenous, 0.5 h): 2.04 ± 2.28 %ID/g
